Results of several laboratories.
Protocols differ between the studies behind these lines. Several values in a cell are separate wells, animals, samples, runs or records. ± marks the error that the study gave.

For `CN(C(=O)n1cnc(-c2ccc[n+]([O-])c2)c1)C1CCCCC1`, “peak anandamide level” read 114 ± 8.8 pmol/g (mouse, brain; oral, 10 mg/kg, 4 h).
For `C=CCn1c(=O)c2cnc(Nc3ccc(N4CCN(C)CC4)cc3)nc2n1-c1ccc2c(n1)[C@@](O)(CC)CC2`, “tumour growth inhibition” read 82.6% (OVCAR-3 xenograft, NOD/SCID mice; oral, 80 mg/kg, day 49, once daily 7 d on, 7 d off x 3).
`N#Cc1ccc2c(-c3ccncc3)c(-c3ccc(F)cc3)nn2c1` — result for “log2 fold change”: -0.0412 (kinase binding, competitor, MIB/MS competition, measured: HST7; Candida albicans cell lysate; 100 nM; reference: DMSO).
`C[C@H](Oc1ccc(Br)cc1-c1ccon1)C(=O)O` — result for “difference from placebo”: -1.88% (muscle velocity recovery cycle; human, tibialis anterior muscle; 600 mg once daily, last response peak at 15 Hz, multiple ascending dose).
For `CCCCCCCCCCCCCCCC(=O)NCCOC(=O)C[C@@H](CN)CC(C)C`, the ED50 was 5.54 mg/kg (mechanical withdrawal threshold; mouse, paclitaxel neuropathic pain; oral).
For `COc1cc(Nc2ncc3c(n2)-c2ccc(Cl)cc2C(c2c(F)cccc2OC)=NC3)ccc1C(=O)O`, “median response score” read 2 (mouse, NB-SD neuroblastoma xenograft; 5.2 mg/kg; direction not given).
With `O[C@H]1CCCN[C@@H]1CCCn1cnc2c(Cl)c(Cl)ccc21` the AUC(0-tau) was 107 ng·h/mL (ELISA, measured: Pro-C3; healthy human volunteers, serum; intraduodenal, 100 mg twice daily, day 14, multiple ascending dose).
The estradiol concentration of `N#Cc1ccc(C(c2ccc(C#N)cc2)n2cncn2)cc1` is reported as 390 ± 71.6 pg/mL (ELISA; human patients, tumour homogenate; 12.5 mg daily).
For `C[C@H]1O[C@@H](O[C@H]2CC[C@@]3(C)[C@@H](CC[C@]4(C)[C@@H]3C=C[C@]35OC[C@@]6(CCC(C)(C)C[C@H]63)[C@@H](O)C[C@]54C)[C@]2(C)CO)[C@H](O)[C@@H](O[C@@H]2O[C@H](CO)[C@@H](O)[C@H](O)[C@H]2O)[C@H]1O`, the ALT activity was 22.5 U/L and 33.1 U/L and 25 U/L and 28 U/L and 25.2 U/L and 32.8 U/L (chronic-plus-binge ethanol mice, plasma; oral, 5 mg/kg/day for 7 d, 168 h).
The plasma NEFA of `C[C@@H](O)CCOC(=O)C[C@@H](C)O` is reported as 0.2 mM (human; oral drink, dose not given, 90 min post dose, median, all participants).
`O=C(O)CNC(=O)Cc1ccccc1` gave a sarcomere length of 1.72 µm (ventricular cardiomyocytes, C57BL/6 mouse; dose not given, 0.68 s).
For `CNS(=O)(=O)Nc1nccc(Cc2c(C)c3ccc(Oc4ncccn4)cc3oc2=O)c1F`, the ED50 was 0.056 mg/kg (mouse HCT-116 KRAS G13D xenograft; oral, once daily).
`C[C@H]1C[C@H]2CSC(N)=N[C@@]2(c2nc(NC(=O)c3ccc(OC(F)F)cn3)cs2)CO1`: “percent change from baseline” -70% (measured: Aβx-40; healthy adults, plasma; 200 mg single dose, 48 h post-dose; reference: placebo).
`Cc1cc(Nc2cc3ncccc3c(N[C@@H]3C[C@H]4CC[C@@H](C3)N4CCC#N)n2)n[nH]1` — result for “change in partial Mayo”: -2.4 (moderate-severe ulcerative colitis patients; 270 mg, day 28, unit not given; reference: baseline).
`CS(=O)(=O)CCNCc1ccc(-c2ccc3ncnc(Nc4ccc(OCc5cccc(F)c5)c(Cl)c4)c3c2)o1` has an ED50 of 125 mg/kg (tumour growth; A498 xenograft, mouse; oral, daily, 21 days).
`CSCCNc1nc(SCCC(F)(F)F)nc2c1ncn2[C@@H]1O[C@H](COP(=O)(O)OP(=O)(O)C(Cl)(Cl)P(=O)(O)O)[C@@H](O)[C@H]1O`: “platelet aggregation AUC” 52.7 ± 35.8 U (ADP-induced platelet aggregation, Multiplate aggregometry; human patients, whole blood; dose not given, 3 h).
The Hill coefficient of `Cc1c(C(=O)Nc2ccc(N3C[C@@H](C)O[C@@H](C)C3)nc2)cccc1-c1ccc(OC(F)(F)F)cc1` is reported as 6.38 (indirect response model, measured: Gli1 mRNA, stromal; mouse).
`CCCn1cc(C)c2c(=O)[nH]c(-c3cc(S(=O)(=O)N4CCN(CC)CC4)ccc3OCC)nc21`: “time to maximum DBP change” 1.47 h (supine; median).
Under “log2 fold change”, `N#Cc1ccn2c(-c3ccncc3)c(-c3ccc(F)cc3)nc2c1` is recorded as 0.245 (kinase binding, competitor, MIB/MS competition, measured: SSK2; Candida albicans cell lysate; 10 µM; reference: DMSO).
With `CCN(Cc1nc2c(N)nc3cc(-c4cc[nH]n4)ccc3c2[nH]1)C(C)=O` the fold change was 21 (Luminex, measured: G-CSF; cancer patients, serum; 2000 µg monotherapy, first 24 h; reference: baseline).
`CC(C)NCC(O)c1ccc(O)c(O)c1` (stereo not shown) has a sarcomere length of 1.5 µm (ventricular cardiomyocytes, C57BL/6 mouse; dose not given, 0.852 s).
Under “progressive disease as best response”, `COc1cc2cc(-c3ccc(CC(=O)Nc4cc(C(C)(C)C(F)(F)F)no4)cn3)cnc2cc1OC` is recorded as 0% (RECIST v1.1; RET-altered advanced solid tumour patients; oral, 10 mg once daily, phase I).
`OC[C@H]1O[C@@H](c2ccc(F)c(Cc3cc4ccccc4s3)c2)[C@H](O)[C@@H](O)[C@@H]1O`: “time glucose at most 70 mg/dL” 3.65 ± 7.29 % change (continuous glucose monitoring; Japanese type 1 diabetes patients; 25 mg/day, day 14; reference: baseline).
Under “time to maximum effect”, `CC#Cc1cncc(-c2ccc3c(c2)[C@@]2(N=C(C)C(N)=N2)[C@]2(CC[C@H](OC)CC2)C3)c1` is recorded as 8 h (measured: Aβ40 and Aβ42; Dunkin-Hartley guinea pigs, CSF; oral, dose not given).
`O=C(Nc1c(Cl)cncc1Cl)c1ccc(OC(F)F)c(OCC2CC2)c1`: “GvHD score difference” -2.23 (NCG mice, human PBMC GvHD; 1 mg/kg once daily, day 33; reference: vehicle, direction not given).
Under “change in EEG Alpha1-power Fz-Cz”, `OC(CCN1CCCCC1)(c1ccccc1)C1CC2C=CC1C2` (stereo not shown) is recorded as -20.2% (resting-state EEG; healthy elderly humans; oral, 2 mg, eyes closed, LS mean; reference: baseline).
`CCO[C@H]1CCN(Cc2c(OC)cc(C)c3[nH]ccc23)[C@H](c2ccc(C(=O)O)cc2)C1` — result for “PNH RBC clone size”: 39.9% (PNH patients, blood; oral, 50 mg then 200 mg, week 8, mean absolute change; reference: baseline).
For `N#Cc1ccc2c(c1)[C@H]1CCCN(C(=O)c3ccc4[nH]cnc4c3)[C@H]1C2`, “change in fasting insulin” read -27.6% (human, plasma; 40 mg, day 15, 360 h; reference: placebo and baseline).
Under “best overall response”, `COc1ncc(-c2nc3c(n2C(C)C)[C@H](c2ccc(Cl)cc2)N(c2cc(Cl)cn(C)c2=O)C3=O)c(OC)n1` is recorded as 0% (International Working Group criteria; human acute myeloid leukemia patients; oral, 20 to 30 mg, response CRi, low-dose).
`COc1ccccc1[C@H](Cn1c(=O)n(C(C)(C)C(=O)O)c(=O)c2c(C)c(-c3ncco3)sc21)OC1CCOCC1`: “fractional hepatic DNL” 6.62 % new palmitate ([1-13C]acetate infusion, isotopomer analysis; overweight or obese healthy men, plasma VLDL-TG palmitate; oral, 50 mg single dose, 6 h post-dose, with: oral fructose).
`CN[C@@H]1COc2c(S(=O)(=O)NC(=O)Nc3c4c(cc5c3CCC5)CCC4)cnn2C1` gave an inhibition of 99.7% (measured: IL-18; human participants, whole blood ex vivo; 900 mg twice daily, multiple doses, 48 h, IL-18, circulating, adjusted for, with: LPS/ATP; reference: baseline).
`[Cl-].[Cl-].[Pt+2].[Ru+2].c1ccc(-c2nc3cc4ccccc4cc3nc2-c2ccccn2)nc1.c1cnc2c(c1)ccc1cccnc12.c1cnc2c(c1)ccc1cccnc12` — result for “negative activation entropy”: 177 ± 3 J/(mol·K) (chloride substitution, UV-vis kinetics; aqueous buffer; concentration not given, pH 7.2, first substitution step, with: thiourea).
With `C=Cc1c(C)c2cc3nc(c(CC(=O)O)c4[nH]c(cc5nc(cc1[nH]2)C(C)=C5CC)c(C)c4C(=O)O)[C@@H](CCC(=O)O)[C@@H]3C` the M2 cells was 10.7% and 9.88% and 10.9% (flow cytometry; mouse, 4T1 tumour-bearing; dose not given, 1 h).
For `COC(=O)c1c(C)[nH]c(C)c1C(=O)c1ccccc1Cc1ccccc1`, the serotonin-induced response was 0.852 and 1.06 and 0.802 and 1.01 (high-content microscopy; DRG neurons, rat; dose not given, unit not given, with: DAMGO 0.01; reference: no DAMGO).
The 4-HDHA level of `CC(c1cc2ccccc2s1)N(O)C(N)=O` (stereo not shown) is reported as 34 ± 6 pg/mL (human blood; 3 µM, with: A23187).
`Cn1cc(-c2ccc(-c3cncc(Cl)c3N3CCC4(CCNC4=O)CC3)cc2)cn1` gave a T/C of 30% (tumour weight; mouse SW-620 xenograft; 70 mg/kg bid).
The T/C of `O=C1N(Cc2ccccc2Cl)c2ccccc2C12NN=C(c1ccccc1)S2` (stereo not shown) is reported as greater than 100% (PC-3 xenograft, mouse; intravenous, 676 mg/kg total, subcutaneous xenograft; reference: vehicle).
`CC(C)[C@H](C(=O)Nc1ccc(C(=O)NO)cc1)c1ccccc1` gave a tumour volume of 9.3 cm3 (volumetric MRI; human, right vagal schwannoma; dose not given, day 835).
`CC(C)(C)c1cc(C(C)(C)C)c(NC(=O)c2c[nH]c3ccccc3c2=O)cc1O` has an IL-17A level of 64700 pg/mL (ELISA; BALB/c mice, small intestine; ip, dose not given, given before gliadin, with: gliadin).
`CC(C)C[C@@H](NC(=O)[C@H](C)NC(=O)CNC(=O)[C@@H](NC=O)C(C)C)C(=O)N[C@@H](C)C(=O)N[C@@H](C(=O)N[C@H](C(=O)N[C@@H](C(=O)N[C@@H](Cc1c[nH]c2ccccc12)C(=O)N[C@H](CC(C)C)C(=O)N[C@@H](Cc1ccc2[nH]ccc2c1)C(=O)N[C@H](CC(C)C)C(=O)N[C@@H](Cc1c[nH]c2ccccc12)C(=O)N[C@@H](C(=O)N[C@@H](Cc1c[nH]c2ccccc12)C(=O)NCCO)C(C)C)[C@H](C)O)C(C)C)C(C)C` has an EC50 of 4.94 ± 1.84 nM (H+/Na+ transport, pyranine pH-gradient; EYPC/EYPG LUVs 19:1).
For `Cc1n[nH]c2ccc(-c3cc(OC[C@@H](N)Cc4ccccc4)cnc3-c3ccoc3)cc12`, “log2 fold change” read 0.0301 (kinase binding, competitor, MIB/MS competition, measured: HRK1; Candida albicans cell lysate; 1 µM; reference: DMSO).
For `Cc1oncc1C(=O)Nc1ccc(C(F)(F)F)cc1`, the DHO concentration was 383 ± 24.8 µM (measured: dihydroorotate; female CD-1 mice, pooled urine; oral, 10 mg/kg daily, 0-8 h after dose 1, 10-day dosing).
`[Cl-].[Cl-].[Pt+2].[Ru+2].c1ccc(-c2nc3ccccc3nc2-c2ccccn2)nc1.c1cnc2c(c1)ccc1cccnc12.c1cnc2c(c1)ccc1cccnc12` — result for “negative activation entropy”: 150 ± 8 J/(mol·K) (chloride substitution, UV-vis kinetics; aqueous buffer; concentration not given, pH 7.2, second substitution step, with: thiourea).
`COc1ccc(-c2cncc(N[C@@H](C)c3cccc(NC(=O)c4cncc(C)c4)c3)n2)cc1OC` has a fold change of 3.5 (measured: rno-miR-410-3p; rat SU5416/hypoxia model, lung; dose not given; reference: SU5416/hypoxia vehicle).
Under “log2 fold change”, `c1ccc(-c2n[nH]cc2-c2ccnc3ccccc23)nc1` is recorded as 1.3 (kinase binding, competitor, MIB/MS competition, measured: YPK1; Candida albicans cell lysate; 1 µM; reference: DMSO).
`N#Cc1ccc2c(c1)[C@H]1CCCN(C(=O)c3ccc4[nH]cnc4c3)[C@H]1C2`: “change from baseline” -1.63 mg/dL (measured: HDL; human; 80 mg once daily, day 28, adjusted mean).

A few entries again:
For `C[C@H]1O[C@@H](O[C@H]2CC[C@@]3(C)[C@@H](CC[C@]4(C)[C@@H]3C=C[C@]35OC[C@@]6(CCC(C)(C)C[C@H]63)[C@@H](O)C[C@]54C)[C@]2(C)CO)[C@H](O)[C@@H](O[C@@H]2O[C@H](CO)[C@@H](O)[C@H](O)[C@H]2O)[C@H]1O`, the ALT activity was 22.5 U/L and 33.1 U/L and 25 U/L and 28 U/L and 25.2 U/L and 32.8 U/L (chronic-plus-binge ethanol mice, plasma; oral, 5 mg/kg/day for 7 d, 168 h).
`COc1ccc(-c2cncc(N[C@@H](C)c3cccc(NC(=O)c4cncc(C)c4)c3)n2)cc1OC` has a fold change of 3.5 (measured: rno-miR-410-3p; rat SU5416/hypoxia model, lung; dose not given; reference: SU5416/hypoxia vehicle).
For `C=CCn1c(=O)c2cnc(Nc3ccc(N4CCN(C)CC4)cc3)nc2n1-c1ccc2c(n1)[C@@](O)(CC)CC2`, “tumour growth inhibition” read 82.6% (OVCAR-3 xenograft, NOD/SCID mice; oral, 80 mg/kg, day 49, once daily 7 d on, 7 d off x 3).
`CSCCNc1nc(SCCC(F)(F)F)nc2c1ncn2[C@@H]1O[C@H](COP(=O)(O)OP(=O)(O)C(Cl)(Cl)P(=O)(O)O)[C@@H](O)[C@H]1O`: “platelet aggregation AUC” 52.7 ± 35.8 U (ADP-induced platelet aggregation, Multiplate aggregometry; human patients, whole blood; dose not given, 3 h).
`N#Cc1ccc2c(-c3ccncc3)c(-c3ccc(F)cc3)nn2c1` — result for “log2 fold change”: -0.0412 (kinase binding, competitor, MIB/MS competition, measured: HST7; Candida albicans cell lysate; 100 nM; reference: DMSO).
For `CNS(=O)(=O)Nc1nccc(Cc2c(C)c3ccc(Oc4ncccn4)cc3oc2=O)c1F`, the ED50 was 0.056 mg/kg (mouse HCT-116 KRAS G13D xenograft; oral, once daily).
`[Cl-].[Cl-].[Pt+2].[Ru+2].c1ccc(-c2nc3cc4ccccc4cc3nc2-c2ccccn2)nc1.c1cnc2c(c1)ccc1cccnc12.c1cnc2c(c1)ccc1cccnc12` — result for “negative activation entropy”: 177 ± 3 J/(mol·K) (chloride substitution, UV-vis kinetics; aqueous buffer; concentration not given, pH 7.2, first substitution step, with: thiourea).
